Experimental data collected from several papers.
± marks the error that the study gave.

| Molecule | cell line | test | system | setting | inhibition |
| --- | --- | --- | --- | --- | --- |
| Cc1cc(Nc2ncc(Cl)c(Nc3ccccc3S(=O)(=O)C(C)C)n2)c(OC(C)C)cc1C1CCNCC1 | NCI-H2228 | cell growth or viability, MTT | – | 0.008 µg/mL, 72 h | 36.6% |
| SDGR | BHK | cell spreading on fibronectin | peptide | up to 1.0 mg/mL, 60 min, added: fibronectin 2 µg/mL coat | inhibited |
| Brc1ccc(-c2cc3ccccc3[nH]2)cc1 | RAW264.7 | NO release, inhibitor, Griess | – | 50 µM, 20 h, LPS-stimulated | 42.4% |
| COc1cccc(-c2cc(=O)c3ccccc3o2)c1N | NCI-H720 | antagonist, ELISA, refers to: ERK1/2 phosphorylation | – | concentration not given, 10 min preincubation, added: lanreotide | 65 ± 17% |
| CCCCC[C@H](CC(=O)NO)C(=O)N[C@H](C(=O)N1CCC[C@H]1CO)C(C)C | U-937 | cell proliferation | – | 13 µM, day 4, added: BSO 25 µM, 20 h preincubation | 48.4 ± 25.7% |
| ON=Cc1c(-c2ccccc2)[nH]c2ccccc12 | RAW264.7 | NO release, inhibitor, Griess | – | 50 µM, 20 h, LPS-stimulated | 97.7% |
| COc1ccc2c(c1)c(CC(=O)O)c(C)n2C(=O)c1ccc(Cl)cc1 | WI-38 | IL-6 release, inhibitor, ELISA | – | 10 µM, LPS-stimulated | 7.7% |
| O=[N+]([O-])c1ccc(O[C@H]2OC[C@@H](O)[C@H](O)[C@H]2O)cc1 | A375-SM | cell adhesion, inhibitor | – | concentration not given, added: 33-kD fibronectin fragment | no effect |
| CC(C)C[C@H](NC(=O)[C@@H](O)[C@H](N)Cc1ccccc1)C(=O)O | U-937 | cell proliferation | – | 145 µM, day 4 | 71 ± 8.6% |
| Nc1ccc2[nH]c(-c3ccccc3)cc2c1 | RAW264.7 | NO release, inhibitor, Griess | – | 50 µM, 20 h, LPS-stimulated | 67.4% |
| C[C@H]1[C@H](C)CC[C@]2(C)CC[C@]3(C)C(=CC[C@@H]4[C@@]5(C)CC[C@@H](O)[C@](C)(C(=O)O)[C@@H]5CC[C@]43C)[C@H]12 | WI-38 | IL-6 release, inhibitor, ELISA | – | 10 µM, LPS-stimulated | 19.8% |
